Measurements pooled from the literature.
Protocols differ between the studies behind these lines.
Cell line: TK-10

The GI50 of `CC(Cc1ccc(Cl)cc1)=C(c1ccc(Cl)cc1)c1ccc(OCCN(C)C)cc1` is reported as 5.1 µM (cell growth or viability).
`COc1cc(CNC(=O)C[C@H](C)CCC=C(C)C)ccc1OCc1cn(-c2ccc([N+](=O)[O-])cc2)nn1` gave a growth percent of 105% (SRB; 10 µM, 48 h).
For `CC/C=C\C/C=C\C/C=C\C/C=C\C/C=C\C/C=C\CCC(=O)Nc1ccn(C2OC(CO)C(O)C2(F)F)c(=O)n1` (stereo not drawn), the TGI was 29.4 µM (NCI60 screen).
`CCC(=C(c1ccc(Cl)cc1)c1ccc(OCCCN(C)C)cc1)c1ccc(OC)cc1` gave a GI50 of 6.23 µM (cell growth or viability).
The growth of `CC(=O)OC[C@H]1O[C@@H](Sc2sc(C(=O)c3ccc(Br)cc3)c(N)c2-c2nc3ccccc3s2)[C@H](OC(C)=O)[C@@H](OC(C)=O)[C@H]1OC(C)=O` is reported as 128% (SRB; 10 µM, 48 h; baseline: untreated).
`COc1cc(CNC(=O)C[C@H](C)CCC=C(C)C)ccc1OCc1cn(-c2ccc(C#N)cc2)nn1` gave a growth percent of 105% (SRB; 10 µM, 48 h).
The growth of `CC(=O)OC[C@H]1O[C@@H](Sc2sc(C(=O)c3ccc(C)cc3)c(N)c2-c2nc3ccccc3s2)[C@H](OC(C)=O)[C@@H](OC(C)=O)[C@@H]1OC(C)=O` is reported as 99.3% (SRB; 10 µM, 48 h; baseline: untreated).
`COc1cc(CNC(=O)C[C@H](C)CCC=C(C)C)ccc1OCc1cn(-c2ccc(Cl)cc2Cl)nn1` has a growth percent of 68.7% (SRB; 10 µM, 48 h).
The inhibition of `COc1ccc2c(c1)/C(=N\Nc1nnc3n1N=C(c1ccccc1)CS3)C(=O)N2` is reported as 29% (cell growth or viability, SRB; 10 µM).

A few entries again:
`CCC(=C(c1ccc(Cl)cc1)c1ccc(OCCCN(C)C)cc1)c1ccc(OC)cc1` gave a GI50 of 6.23 µM (cell growth or viability).
